Measurements of several laboratories.

| Compound | test | system | setting | renal clearance [mL/min] |
| --- | --- | --- | --- | --- |
| CN(C)C(=O)c1cc2cnc(Nc3ccc(N4CCNCC4)cn3)nc2n1C1CCCC1 | – | human, normal renal function, plasma and urine | oral, 400 mg, single dose, geometric mean | 84.7 |
| C[C@@H](Oc1ccc(S(C)(=O)=O)cc1C(=O)N1C[C@@H]2C[C@]2(c2cc(C(F)(F)F)on2)C1)C(F)(F)F | – | young healthy humans, plasma and urine | oral, 75 mg, 0 to 24 h, single dose | 6.03 |
| Cn1cc(-c2cn3nccc3c(-c3cnn([C@]4(CC#N)C[C@@H](C#N)C4)c3)n2)cn1 | – | healthy human | dose not given, day 10, once daily dosing | 16.7 |
| C[C@H](O)c1cc(C(=O)N[C@@H](C)Cn2ccc(-c3ccc(C#N)c(Cl)c3)n2)n[nH]1 | measured: darolutamide | human, fasted | oral, 300 mg darolutamide tablet, geometric mean | 5.99 |
| Cl.[2H]C([2H])([2H])CC(=O)c1cnc(NC(=O)C2CC2)cc1Nc1cccc(-c2ncn(C([2H])([2H])[2H])n2)c1OC | – | human, non-fasted | oral, 60 mg, once daily multiple dose, mean | 1.06 |
| CC(C)n1c(C2CCNCC2)nc2c([N+](=O)[O-])c(Br)c(Br)cc21 | – | human | oral, 125 mg single dose, mean | 12.7 |
| O=C(c1nc2n(n1)[C@H](c1ccccc1)C[C@@H]2F)C1CC1 | – | human | 5 mg single dose, geometric mean | 0.138 |
| Cc1cc(-c2nccc3c2ccn3CC(=O)Nc2ccc(-c3cnccn3)cn2)ccn1 | – | human, plasma and urine | oral, 15 mg once daily, day 1, geometric mean | 5.85 |
| CN[C@@H]1COc2c(S(=O)(=O)NC(=O)Nc3c4c(cc5c3CCC5)CCC4)cnn2C1 | – | human, urine | oral, 300 mg twice daily, 0-12 h, day 7 | 8.1 |
